Published values from different studies.
Numbers after ± are the reported error.

CC(C)C[C@@H](/C=C/S(C)(=O)=O)NC(=O)[C@H](CC(C)C)NC(=O)[C@@H](NC(=O)N[C@H](C(=O)OC(C)(C)C)C(C)C)C(C)C
IC50 (rabbit 26S proteasome beta5; chymotrypsin-like activity; 30 min, 37 °C, together with: Suc-LLVY-AMC): 1000 nM

Oc1ccc(F)cc1-c1nc2c(Cl)cc(Cl)cc2[nH]1
IC50 (NF-κB (human); reporter gene, inhibitor; HEK293 NF-κB luciferase reporter; together with: TNFα): 27600 ± 13500 nM

COc1nc2c(N)[n+]3cnc2n1[C@@H]1O[C@H](COP(=O)([O-])OP(=O)(O)OC[C@H]2O[C@@H]3[C@H](O)[C@@H]2O)[C@@H](O)[C@H]1O
IC50 (cADPR receptor; Ca2+ release, antagonist; permeabilised Jurkat T cells; together with: cADPR): 200 nM

CC(C)c1cnc(-c2cc(Cl)ccc2F)cc1Nc1ccncc1C(=O)NC(CO)CO
IC50 (TGF-β receptor type 1 (human); SMAD2 Ser465/467 phosphorylation, inhibitor; MDA-MB-231; total drug, together with: TGF-β): 46.1 ± 2.05 nM

COCCNc1nc(-c2nccn2C)nc2sc(-c3cccc(OC)c3Cl)c(-c3ccccc3)c12
IC50 (Ras; Ras-GTP complex formation, inhibitor, GTP pull-down; PANC-1; 6 h, together with: EGF 15 min): 1000 to 3000 nM

Oc1cc(I)ccc1-c1nc2c(Cl)cc(Cl)cc2[nH]1
IC50 (NF-κB (human); reporter gene, inhibitor; HEK293 NF-κB luciferase reporter; together with: TNFα): 3550 ± 920 nM

COc1cc(CCC(C)=O)ccc1O
IC50 (mAb 6-AT6; antibody binding, indirect competitive ELISA; together with: coating antigen 2-OVA): > 4000 ng/mL

Oc1ccc(Cl)cc1-c1nc2cc(C(F)(F)F)ccc2[nH]1
IC50 (NF-κB (human); reporter gene, inhibitor; HEK293 NF-κB luciferase reporter; together with: TNFα): 4820 ± 1050 nM

CCCCC/C=C/C(=O)CCc1ccc(O)c(OC)c1
IC50 (mAb 6-AT6; antibody binding, indirect competitive ELISA; together with: coating antigen 3-OVA): > 4000 ng/mL

COC1CCC(Nc2nc(-c3nccn3C)nc3sc(-c4ccn(C)n4)c(-c4ccccc4)c23)C1 (stereo not shown)
IC50 (Ras; Ras-GTP complex formation, inhibitor, GTP pull-down; NCI-H1975; 6 h, together with: EGF 15 min): 1000 to 3000 nM

Repeated from above:
CC(C)C[C@@H](/C=C/S(C)(=O)=O)NC(=O)[C@H](CC(C)C)NC(=O)[C@@H](NC(=O)N[C@H](C(=O)OC(C)(C)C)C(C)C)C(C)C
IC50 (rabbit 26S proteasome beta5; chymotrypsin-like activity; 30 min, 37 °C, together with: Suc-LLVY-AMC): 1000 nM
